{"data": "Experimental data pooled from the literature", "organism": "Trypanosoma brucei", "note": "Lines come from different studies, so protocols differ. Numbers after ± are the reported error."}
{"Structure (SMILES)": "N=C(N)c1ccc(OCCCCCOc2ccc(C(=N)N)cc2)cc1", "assay": "parasite growth, resazurin", "setting": "76 h", "endpoint": "IC50", "value": "3.2 nM"}
{"Structure (SMILES)": "COc1ccc2c3c4n(c2c1)[C@H](C=C(C)C)OOC(C)(C)C[C@@H]4N1C(=O)[C@@H]2CCCN2C(=O)[C@]1(O)[C@H]3O", "assay": "parasite growth", "setting": "40 h", "endpoint": "IC50", "value": "< 20000 nM"}
{"Structure (SMILES)": "Nc1nc(N)nc(Nc2ccc([As]3SCC(CO)S3)cc2)n1 (stereo not shown)", "assay": "parasite growth, resazurin", "system": "RHODESIENSE STIB900", "setting": "70 h", "endpoint": "EC50", "value": "6 nM"}
{"Structure (SMILES)": "CC12CC3CC(C)(C1)CC(N)(C3)C2", "assay": "parasite growth", "setting": "48 h", "endpoint": "IC50", "value": "13800 nM"}
{"Structure (SMILES)": "Nc1cccc(-c2cc3c(Oc4cccc(O)c4)ncnc3[nH]2)c1", "assay": "transferrin endocytosis, inhibitor", "system": "bloodstream form", "setting": "with: transferrin", "endpoint": "EC50", "value": "2000 ± 1000 nM"}
{"Structure (SMILES)": "N=C(N)c1ccc(OCCCCCOc2ccc(C(=N)N)cc2)cc1", "assay": "safranine fluorescence", "system": "procyclic form", "setting": "5 µM, unit not given", "scale": "higher = stronger uncoupling", "endpoint": "membrane potential change", "value": "64 ± 11"}
{"Structure (SMILES)": "O=C1Nc2ccc3ncsc3c2/C1=C/Nc1ccc(S(=O)(=O)Nc2ccccn2)cc1", "assay": "transferrin endocytosis, inhibitor", "system": "bloodstream form", "setting": "with: transferrin", "endpoint": "EC50", "value": "800 ± 100 nM"}
{"Structure (SMILES)": "CC(N)C12CC3CC(CC(C3)C1)C2 (stereo not shown)", "assay": "parasite growth", "setting": "48 h", "endpoint": "IC50", "value": "7040 nM"}
{"Structure (SMILES)": "O=C(O)CC1CC(Br)=NO1 (stereo not shown)", "assay": "parasite growth, resazurin", "setting": "72 h", "endpoint": "EC50", "value": "> 100000 nM"}
{"Structure (SMILES)": "N=C(N)c1ccc(OCCCCCOc2ccc(C(=N)N)cc2)cc1", "assay": "parasite growth, resazurin", "setting": "72 h", "endpoint": "EC50", "value": "1 nM"}
{"note": "Excerpt of the above:"}
{"Structure (SMILES)": "N=C(N)c1ccc(OCCCCCOc2ccc(C(=N)N)cc2)cc1", "assay": "safranine fluorescence", "system": "procyclic form", "setting": "5 µM, unit not given", "scale": "higher = stronger uncoupling", "endpoint": "membrane potential change", "value": "64 ± 11"}
{"Structure (SMILES)": "Nc1nc(N)nc(Nc2ccc([As]3SCC(CO)S3)cc2)n1 (stereo not shown)", "assay": "parasite growth, resazurin", "system": "RHODESIENSE STIB900", "setting": "70 h", "endpoint": "EC50", "value": "6 nM"}
